Measured values collected from several papers.
Values after ≈ are worked out from the molar mass of the structure shown.
Organism: Micrococcus luteus

CC[C@H](C)[C@H](NC(=O)[C@H](CCCCN)NC(=O)[C@H](CCCNC(=N)N)NC(=O)CNC(=O)[C@@H](NC(=O)CN)C(C)C)C(=O)NCC(=O)N[C@@H](Cc1ccccc1)C(=O)N[C@@H](CCCCN)C(=O)N[C@@H](CCCCN)C(=O)N[C@H](C(=O)N[C@@H](CC(C)C)C(=O)N[C@@H](Cc1ccccc1)C(=O)N[C@@H](Cc1ccccc1)C(=O)N[C@@H](Cc1ccccc1)C(=O)N[C@@H](CCCCN)C(=O)N[C@@H](CCCCN)C(=O)NCC(=O)N[C@@H](Cc1ccc(O)cc1)C(=O)N[C@@H](CCC(=O)O)C(=O)N[C@@H](CCCCN)C(=O)N[C@@H](C)C(=O)N[C@@H](CC(N)=O)C(=O)NCC(=O)NCC(=O)N[C@@H](Cc1ccccc1)C(=O)N[C@H](C(=O)N[C@@H](CCCCN)C(=O)N[C@@H](CCCCN)C(=O)N[C@@H](CCCCN)C(=O)NCC(=O)O)C(C)C)C(C)C  MBC (broth microdilution; ATCC 8166, CaMHB): 8 µM (≈ 27.7 µg/mL)
c1ccc(CCNC2CCCc3c2[nH]c2ccc(C4CCCCC4)cc32)cc1 (centres unmarked)  MIC (microbial growth, broth dilution; DSM1790): 1 µg/mL
CC[C@H](C)[C@H](NC(=O)[C@H](CC(C)C)NC(=O)[C@H](CO)NC(=O)[C@H](Cc1ccc(O)cc1)NC(=O)CNC(=O)CNC(=O)[C@@H](NC(=O)[C@H](CCCCN)NC(=O)[C@H](Cc1ccc(O)cc1)NC(=O)[C@H](CO)NC(=O)[C@H](CC(N)=O)NC(=O)[C@H](CCCCN)NC(=O)[C@H](CCCCN)NC(=O)[C@H](CO)NC(=O)CNC(=O)[C@H](CCCCN)NC(=O)[C@H](CCCCN)NC(=O)[C@H](CCCNC(=N)N)NC(=O)[C@H](CCCNC(=N)N)NC(=O)[C@@H]1CCCN1)[C@@H](C)O)C(=O)N[C@@H](CO)C(=O)N[C@@H](CC(C)C)C(=O)NCC(=O)N[C@@H](CCCCN)C(=O)N1CCC[C@H]1C(=O)N[C@@H](CC(N)=O)C(=O)N[C@H](C(=O)N[C@@H](Cc1c[nH]cn1)C(=O)N[C@@H](CCCCN)C(=O)N[C@@H](C)C(=O)N1CCC[C@H]1C(=O)N[C@@H](Cc1ccc(O)cc1)C(=O)N[C@@H](CCSC)C(=O)N[C@@H](CCC(=O)O)C(=O)N[C@@H](CO)C(=O)N[C@@H](CC(C)C)C(=O)O)C(C)C  MIC (broth microdilution; ATCC 4698): 15.9 µM
Cc1ccc(-c2nc3ccc(C)cn3c2CC(=O)NCc2ccc(N(C)C)cc2)cc1  inhibition zone (microbial growth; ATCC10240; 2 mM, 20 h): 17 mm
Cc1ccc2[nH]c3c(c2c1)CCCC3NCCc1ccc(O)cc1 (centres unmarked)  MIC (broth microdilution; DSM 1790): 8 µg/mL
CC(C)C[C@H](NC(=O)[C@H](CCCNC(=N)N)NC(=O)[C@H](C)NC(=O)[C@H](CC(C)C)NC(=O)[C@H](CCCNC(=N)N)NC(=O)[C@H](C)NC(=O)[C@H](CCCCN)NC(=O)[C@H](CC(C)C)NC(=O)[C@H](CCCNC(=N)N)NC(=O)[C@H](Cc1ccc(O)cc1)NC(=O)[C@H](CC(C)C)NC(=O)[C@H](CCCNC(=N)N)NC(=O)[C@H](C)NC(=O)[C@H](CCCNC(=N)N)NC(=O)[C@H](CC(C)C)NC(=O)[C@H](CCCCN)NC(=O)[C@H](C)NC(=O)[C@H](CC(C)C)NC(=O)[C@H](CCCNC(=N)N)NC(=O)[C@H](C)NC(=O)[C@@H](N)CCCCN)C(N)=O  MIC (broth microdilution; ATCC 7468; 24 h): < 1 µM
Cc1ccc(CNC(=O)C(=O)c2c(C)nc3ccc(C)cn23)cc1  inhibition zone (microbial growth; ATCC10240; 2 mM, 20 h): 0 mm
CC(C)C[C@H](NC(=O)[C@H](Cc1ccccc1)NC(=O)[C@H](CCC(N)=O)NC(=O)[C@H](Cc1ccc(O)cc1)NC(=O)[C@H](CCCCN)NC(=O)[C@@H]1CCCN1C(=O)[C@H](CCCNC(=N)N)NC(=O)[C@H](CCC(N)=O)NC(=O)[C@H](Cc1c[nH]c2ccccc12)NC(=O)[C@H](CS)NC(=O)[C@H](Cc1c[nH]c2ccccc12)NC(=O)[C@H](Cc1ccccc1)NC(=O)[C@H](CCCNC(=N)N)NC(=O)[C@H](CCCCN)NC(=O)[C@H](CCCCN)NC(=O)[C@H](CCCCN)NC(=O)[C@@H](NC(=O)[C@@H](NC(=O)[C@H](CC(C)C)NC(=O)[C@@H](N)CO)C(C)C)[C@@H](C)O)C(=O)O  MIC (NCTC 2665): 6.25 µg/mL

Some of these lines once more:
CC(C)C[C@H](NC(=O)[C@H](Cc1ccccc1)NC(=O)[C@H](CCC(N)=O)NC(=O)[C@H](Cc1ccc(O)cc1)NC(=O)[C@H](CCCCN)NC(=O)[C@@H]1CCCN1C(=O)[C@H](CCCNC(=N)N)NC(=O)[C@H](CCC(N)=O)NC(=O)[C@H](Cc1c[nH]c2ccccc12)NC(=O)[C@H](CS)NC(=O)[C@H](Cc1c[nH]c2ccccc12)NC(=O)[C@H](Cc1ccccc1)NC(=O)[C@H](CCCNC(=N)N)NC(=O)[C@H](CCCCN)NC(=O)[C@H](CCCCN)NC(=O)[C@H](CCCCN)NC(=O)[C@@H](NC(=O)[C@@H](NC(=O)[C@H](CC(C)C)NC(=O)[C@@H](N)CO)C(C)C)[C@@H](C)O)C(=O)O  MIC (NCTC 2665): 6.25 µg/mL
